Assay results collected from several papers.
Parts stem from different laboratories: compare values within a part only. Positions count from the first letter of the parent shown.

Set 1
Target: Histone acetyltransferase KAT6A, winged helix 2, GST fusion (KAT6A, Homo sapiens, UniProt Q92794, residues 85-181)
Method: protein binding microarray
Form: double-stranded DNA, one strand shown
Matrix: in vitro
Tested at: not given
Notes: 8-mer, flanks averaged, mean of 2 arrays, mostly near background
Reference: not given
Direction: higher = stronger binding
Target sequence (chain): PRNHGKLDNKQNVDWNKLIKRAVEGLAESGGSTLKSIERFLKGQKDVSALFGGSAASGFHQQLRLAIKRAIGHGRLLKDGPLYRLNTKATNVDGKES
Sequence | E-score
AGGACACT | -0.0415
ACTCGTCC | 0.00709
CGTTTACC | -0.000775
CAAAGGGG | 0.0618
CTCTGGTC | -0.0487
CACATTAC | -0.162
GCCCGCCA | 0.0915
TCGCAACA | 0.00901

Set 2
Target: CRIPT, C-terminal peptide
Method: DHFR complementation, deep sequencing
Matrix: yeast
Notes: single substitutions, model-inferred values
Reference: wild type
Direction: higher = weaker binding
Starting sequence: ERBIN, PDZ domain 1 (human); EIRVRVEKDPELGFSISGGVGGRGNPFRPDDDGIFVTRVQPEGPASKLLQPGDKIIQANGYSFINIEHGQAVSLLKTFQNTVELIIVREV; partner TKNYKQTSV
Change | binding free energy change [kcal/mol]
I16E | 0.206
I86V | -0.0754
F78C | 0.294
P41Y | 0.32
T81H | 0.22
E42H | 0.0643
V90F | -0.0372
F63D | 0.863
I85E | -0.00324

Set 3
Target: CCND3, cyclin fold, Cln2 fusion (human)
Method: yeast growth competition, sequencing
Matrix: yeast
Notes: weak parent motif
Reference: not given
Direction: higher = stronger binding
Starting sequence: WEE1 docking peptide (human); HKTFRKLRLFDTP; partner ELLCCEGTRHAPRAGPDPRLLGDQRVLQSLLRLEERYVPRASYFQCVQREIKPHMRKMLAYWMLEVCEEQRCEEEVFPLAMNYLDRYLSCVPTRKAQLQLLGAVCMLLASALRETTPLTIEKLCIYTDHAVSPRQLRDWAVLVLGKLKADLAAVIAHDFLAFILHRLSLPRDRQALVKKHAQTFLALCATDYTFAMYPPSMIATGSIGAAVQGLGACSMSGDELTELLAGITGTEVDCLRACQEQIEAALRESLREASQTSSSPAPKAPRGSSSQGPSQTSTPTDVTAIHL
Change | normalised enrichment score
HKAFRKLRLFDTP [T3A] | 0.0976
HKTTRKLRLFDTP [F4T] | 0.131
HKTFRKNRLFDTP [L7N] | 0.245
HKTFWKLRLFDTP [R5W] | 0.105
HKTFRKYRLFDTP [L7Y] | 0.156
PKTFRKLRLFDTP [H1P] | 0.135
HKTFRKLRGFDTP [L9G] | 0.115
HKTFRKLRLFDTI [P13I] | 0.0214
QKTFRKLRLFDTP [H1Q] | 0.0694

Further values, each from its own experiment
Molecule | target | test | system | conditions | how to read | endpoint | value
PhoQ, residues 284 288 289 292 302 303 AGGCYF | PhoP, residues 12 14 15 18 19 STHWV (Escherichia coli, UniProt P23836) | Sort-seq, refers to: YFP reporter | E. coli | PhoQ-PhoP variant library, with: 10 µM Mg2+ | reference: high Mg2+ state, higher = stronger signaling | fold induction | 23.2
